Assay results gathered from unrelated publications.
Numbered parts are unrelated; each lists some results of a single study. Changes are numbered by the printed parent chain.

Series 1 — method: RNA Bind-n-Seq; form: RNA; matrix: in vitro; concentration: 200 nM; setting: whole 134-nt RNA, ends assumed; added: 150 mM LiCl; reference: input library; reading: higher = stronger binding; all molecules: 7-deaza-guanosine replaces G
Target: Ras GTPase-activating protein-binding protein 1, full length (G3BP1, Homo sapiens, UniProt Q13283)
UniProt Q13283, sequence (whole entry, looked up): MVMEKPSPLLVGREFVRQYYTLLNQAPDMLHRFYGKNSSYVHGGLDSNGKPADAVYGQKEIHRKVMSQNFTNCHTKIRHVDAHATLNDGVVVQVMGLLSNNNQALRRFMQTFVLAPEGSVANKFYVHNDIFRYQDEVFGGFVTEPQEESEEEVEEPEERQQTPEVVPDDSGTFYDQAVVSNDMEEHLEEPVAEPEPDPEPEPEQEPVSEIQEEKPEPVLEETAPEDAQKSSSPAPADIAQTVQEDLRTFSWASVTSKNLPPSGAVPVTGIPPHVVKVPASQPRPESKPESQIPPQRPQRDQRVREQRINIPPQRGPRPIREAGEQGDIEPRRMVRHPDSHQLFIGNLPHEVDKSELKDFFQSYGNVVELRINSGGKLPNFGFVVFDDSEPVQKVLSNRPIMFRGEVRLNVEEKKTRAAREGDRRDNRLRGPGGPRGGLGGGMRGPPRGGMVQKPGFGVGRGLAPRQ
All sequences stand within: GGGAGUUCUACAGUCCGACGAUC … UGGAAUUCUCGGGUGUCAAGG
Sequence	log2 enrichment
UGGGAGGUGGAUUUUGUUUAUUUCUUUAGCUCAUUUCCAGGGGUGGGAAUUUUUUUUUAAUAUGUGUCAUGAAUAAAGUUGUUUUUGAAA	-0.879
UCCUGUGCUACACAUCGUAUGUACCGAAUCGGGUUUUUGGGAAAAAAAGGGUUUUUGGGAAAGUAUUAUGUUACGCCGUUCGGAUCUGCA	-2.17
UGUGCUACACAUCGUAUGUACCGAAUCGGGGUUUUUUUGGGGUUUUUUUGGGGUUUUUUUGGAAAGUAUUAUGUUACGCCGUUCGGAUCU	1.91
GUCCUGUGCUACACAUCGUAUGUACCGAAUCGGAAAAAGGGAAAAAGGGAAAAAGGGGAAAGUAUUAUGUUACGCCGUUCGGAUCUGCAC	-0.0863
UGGCCCUGGUGGCAUGCGGGGAGGAAGAAGUGGCCUCAUGGAUCGUGGUGGUCCCGGUGGAAUGUUCAGAGGUGGCCGUGGUGGAGACAG	0.206
AGUCCUGUGCUACACAUCGUAUGUACCGAAUCGGGAAAAAGGGGAAAAAGGAAAAAGGAAAGUAUUAUGUUACGCCGUUCGGAUCUGCAC	-0.204
CCUGUGCUACACAUCGUAUGUACCGAAUCGGGGUUUGGGGUUUUUGGGGAAAAAAAGGGGAAAGUAUUAUGUUACGCCGUUCGGAUCUGC	0.394
UGGGAGGUGGAUUUUGUUUAUUUUUUUAGCUCAUUUCCAGGGGUGGGAAGUUUUUUUUAAUAUGUGUCAUGAAUAAAGUUGUUUUUGAAA	0.0613

Series 2 — method: protein binding microarray; form: double-stranded DNA, one strand shown; matrix: in vitro; concentration: not given; reference: not given; reading: higher = stronger binding
Target: Histone acetyltransferase KAT6A, winged helix 1, GST fusion (KAT6A, Homo sapiens, UniProt Q92794, residues 1-85)
Setting: 8-mer, flanks averaged, mean of 2 arrays, mostly near background
Residues (chain): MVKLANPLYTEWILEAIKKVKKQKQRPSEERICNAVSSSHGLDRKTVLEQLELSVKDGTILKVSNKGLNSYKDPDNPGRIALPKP
Sequence	E-score
ATTCAGGG	-0.0843
CACTTGAC	0.0425
CGAGGCGA	-0.118
CCATATGA	-0.116
CTGTTCGC	-0.00331
CACATTGG	-0.19
CTTAGAAG	-0.215
CCCAGTCA	-0.157
ACCTGCGA	-0.033
GGAGCTAA	-0.2
ATTGCGAA	0.00825
TAACCAAA	-0.22
ATTTATCC	-0.111
TGCGTCCA	0.079
ACACATGC	-0.0123
AGTCTCCC	-0.043
ATTATACA	-0.181
ATCGCATA	0.0407
CACGACGA	-0.0909
AATTTTTC	-0.0356

Series 3 — target: CCNB2, cyclin fold, Cln2 fusion (human); method: yeast growth competition, sequencing; matrix: yeast; setting: weak parent motif; reference: not given; reading: higher = stronger binding
Starting sequence: E2F1 docking peptide (human); PPVKRRLDLETDH
Substitution	normalised enrichment score
PPPKRRLDLETDH [V3P]	0.616
NPVKRRLDLETDH [P1N]	0.412
PPVKRRLDLEPDH [T11P]	0.733
PPVKRRLDLETDE [H13E]	0.421
PPVKRRLDLETRH [D12R]	0.415
PPVKRRLDLRTDH [E10R]	0.294
PAVKRRLDLETDH [P2A]	0.093
PPVKRRYDLETDH [L7Y]	0.138
PPVKRRLALETDH [D8A]	0.163
PPVKRRKDLETDH [L7K]	0.137
PPVKRRQDLETDH [L7Q]	0.195
PPHKRRLDLETDH [V3H]	0.272
PPVKRRLDLETWH [D12W]	0.342
PPVKRRPDLETDH [L7P]	0.222
PPVKRRLDLSTDH [E10S]	0.44
PPVKRRLDLETCH [D12C]	0.383
PPVKRRLDLETAH [D12A]	0.464
PPVKRRLDLETDN [H13N]	0.115
PPVERRLDLETDH [K4E]	-0.0472
PPVKRRLDLATDH [E10A]	0.353
PPVKRRIDLETDH [L7I]	0.554

Series 4 — target: FOSL1, bZIP domain (human); method: DHFR protein complementation; matrix: yeast; reference: wild-type JUN-FOS pair; reading: higher = stronger binding
Setting: single substitutions, most at no-binding floor
Starting sequence: JUN, bZIP domain (human); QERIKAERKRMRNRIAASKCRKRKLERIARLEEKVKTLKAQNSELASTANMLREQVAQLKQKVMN; partner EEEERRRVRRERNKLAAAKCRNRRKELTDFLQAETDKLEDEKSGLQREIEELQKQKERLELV
Substitution	binding fitness [natural log]
Q58S	-0.273
V56T	-1.16
V35I	-0.267
K39E	-0.764
E32V	-0.567
L45D	-1.43
A49N	-1.45
R53L	-1.23
E32C	0.108
K39D	-1.39
V35Y	-0.526
A40C	-0.586
V35K	-0.862
A46D	-1.2
L38G	-1.34
L38D	-1.29
V35L	-0.429
S43H	-0.398
A40G	-0.726
Q41M	-0.604
S47M	-0.427
T48Q	-0.266
E33H	-0.61
M51I	-0.315
K34D	-0.906

A few entries again (series 4):
Substitution	binding fitness [natural log]
A40C	-0.586
V35K	-0.862
A46D	-1.2
L38G	-1.34
